Assay results of several laboratories.
Protocols differ between the studies behind these lines.
BRD4 BD1: Bromodomain-containing protein 4, BD1 (BRD4, Homo sapiens, UniProt O60885)
BRD4 BD2: Bromodomain-containing protein 4, BD2 (BRD4, Homo sapiens, UniProt O60885)
BRD4 short isoform: Bromodomain-containing protein 4, short isoform (BRD4, Homo sapiens, UniProt O60885)

O=C1CCCN1c1cccc(NS(=O)(=O)c2ccc(F)c(Cl)c2)c1
IC50 (BRD4 BD1; binding, differential scanning fluorimetry): 25600 nM

Cc1nc(S(=O)(=O)Nc2cc3c(cc2Oc2cccc(COCC(C)C)c2)n(C)c(=O)n3C)cn1C
IC50 (BRD4 BD2): > 20000 nM

Cn1cc(-c2cc(N3CCCS3(=O)=O)ccc2N[C@H]2CC[C@@](C)(O)CC2)c2cc[nH]c2c1=O
IC50 (BRD4 BD2; cell-free assay, TR-FRET): 2.43 nM

COc1cc(-c2cc(C(C)=O)n3ccccc23)cc(OC)c1Cn1ccnc1
IC50 (BRD4 BD1; inhibitor): 2200 nM

Cc1sc2c(c1C)C(c1ccc(Cl)cc1)=N[C@@H](CC(=O)NCCN(C)CCCCNC(=O)CCCCOc1cccc3c1C(=O)N([C@H]1CCC(=O)NC1=O)C3=O)c1nnc(C)n1-2
DC50 (BRD4 short isoform; degrader, Western blot, item: BRD4 short isoform; MV4-11): 20 nM

Cc1ncsc1-c1ccc(CNC(=O)[C@@H]2C[C@@H](O)CN2C(=O)[C@@H](NC(=O)COCC(C)(COCCOCCOCCNC(=O)C[C@@H]2N=C(c3ccc(Cl)cc3)c3c(sc(C)c3C)-n3c(C)nnc32)COCCOCCOCCNC(=O)C[C@@H]2N=C(c3ccc(Cl)cc3)c3c(sc(C)c3C)-n3c(C)nnc32)C(C)(C)C)cc1
Kd (BRD4 short isoform; binding, BROMOscan; full-length protein): 0.083 nM

Cn1cc(-c2cc(N3CCCCS3(=O)=O)ccc2N[C@H]2CC[C@@](C)(O)CC2)c2cc[nH]c2c1=O
IC50 (BRD4 BD2; cell-free assay, TR-FRET): 2.26 nM

CC(=O)N1c2ccc(-c3ccc(CNC(=O)c4cn5cc(-c6cnc(N)nc6)nc(N6CCOCC6)c5n4)cc3)cc2CC[C@@H]1C
Kd (BRD4 BD1; binding, competition with immobilised ligand): 52 nM

Cc1ncsc1-c1ccc2c(c1)OCCOCCOC[C@@H](NC(=O)C[C@@H]1N=C(c3ccc(Cl)cc3)c3c(sc(C)c3C)-n3c(C)nnc31)COCCOCCOCC(=O)N[C@@H](C(C)(C)C)C(=O)N1C[C@H](O)C[C@H]1C(=O)NC2
Kd (BRD4 BD2; binding, ITC): 213 nM

COc1ccc(Br)cc1S(=O)(=O)Nc1cccc(N2CCCC2=O)c1
IC50 (BRD4 BD1; binding, differential scanning fluorimetry): 11900 nM

Cc1cc2c(cc1N)n(C)c(=O)n2C
IC50 (BRD4 BD1): > 33300 nM

O=C1CCCN1c1cccc(NS(=O)(=O)c2cccc(F)c2)c1
IC50 (BRD4 BD1; binding, differential scanning fluorimetry): 23800 nM

Cc1cnc(Nc2ccc(C3CCN(C)CC3)c(F)c2)nc1Nc1ccc(Cl)c(NS(=O)(=O)C(C)(C)C)c1
IC50 (BRD4 BD1; cell-free assay, AlphaScreen): 14.9 nM

Some of these lines once more:
Cc1cnc(Nc2ccc(C3CCN(C)CC3)c(F)c2)nc1Nc1ccc(Cl)c(NS(=O)(=O)C(C)(C)C)c1
IC50 (BRD4 BD1; cell-free assay, AlphaScreen): 14.9 nM
